# Results collected from several papers.
# Each numbered part is a random draw from the data of one study; scales do not carry over between parts.

# Sample 1
# Target: Ras GTPase-activating protein-binding protein 1, full length (G3BP1, Homo sapiens, UniProt Q13283)
# Chain of UniProt Q13283 (whole entry, looked up): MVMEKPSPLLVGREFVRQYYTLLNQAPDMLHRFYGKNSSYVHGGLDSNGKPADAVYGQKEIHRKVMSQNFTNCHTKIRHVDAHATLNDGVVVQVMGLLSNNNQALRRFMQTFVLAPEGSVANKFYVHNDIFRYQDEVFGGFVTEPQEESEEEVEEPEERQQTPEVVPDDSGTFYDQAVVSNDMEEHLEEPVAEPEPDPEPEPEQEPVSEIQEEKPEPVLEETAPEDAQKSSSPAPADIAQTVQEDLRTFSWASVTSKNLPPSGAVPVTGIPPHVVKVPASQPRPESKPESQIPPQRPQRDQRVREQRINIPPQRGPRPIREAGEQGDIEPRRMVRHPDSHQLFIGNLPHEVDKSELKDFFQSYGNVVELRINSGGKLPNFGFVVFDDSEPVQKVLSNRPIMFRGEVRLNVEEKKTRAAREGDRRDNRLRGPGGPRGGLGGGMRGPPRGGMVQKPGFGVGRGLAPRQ
# Technique: RNA Bind-n-Seq
# Molecule type: RNA
# Sample: in vitro
# Concentration: 200 nM
# Notes: whole 134-nt RNA, ends assumed
# With: 150 mM LiCl
# Baseline: input library
# Reading: higher = stronger binding
# Each molecule: 7-deaza-guanosine replaces G
# Constant ends, left off below: GGGAGUUCUACAGUCCGACGAUC … UGGAAUUCUCGGGUGUCAAGG
Strand,log2 enrichment
UGGCCCUGGUGGCAUGCGGGGAGGAAGAGGUGGCCUCAUGGAUCGUGGUGGUCCCGGUGGAAUGUUCAGAGGUGGCCCUGGUGGAGACAG,0.306
CACAGACAACACGCACCCACACAGACAUAGAGGGAAGGGGUUGGGAUGGGGACAGGGUGCACAGCAGGGCGGGGUAGGACCCCAGCCCCU,-0.188
UCCUGUGCUACACAUCGUAUGUACCGAAUCGGGGUUUGGGGAAAGGGGUUUUUUUGGGGAAAGUAUUAUGUUACGCCGUUCGGAUCUGCA,0.295
UCAAGUCCUGUGCUACACAUCGUAUGUACCGAAUCGGAGGUUUGGUUUUUUUGGAAAGUAUUAUGUUACGCCGUUCGGAUCUGCACUUCC,-0.0529
GCUGUUGGAGUGGAUCCGCCGCACAAUCCCGUGGCUGGAGAACCGGGUGCCCGAGAACACCAUGCAUGCCAUGCAACAGAAGCUGGAGGA,-4.1
UAACUUUAGAGGAGGAUCUGAUGGAUAUGGCAGUGGACGUGGAUUUGGGGAUGGCUAUAAUGGGUAUGGAGGAGGACCUGGAGGUGGCCA,-1.12
UAGUUUAUGCCAACGUGACUUCAUUCAUACAGAUGAACCAAGGAUCGGGAUAGCAGUAUAAAAUUAGAAUCAAGACAGCUGACUGCUCAG,-3.52
CACAGACAACACGCACCCACACAGACACAGAGGGAAGGGGUUGGGAUGGGGACAGGGUGCACAGCGGGGCGGGGUAGGACCCCAGCCCCU,-0.211
CCUGUGCUACACAUCGUAUGUACCGAAUCGGGGUUUGGGGAAAAAGGGGAAAAAAAGGGGAAAGUAUUAUGUUACGCCGUUCGGAUCUGC,0.289
CCUCAAGUCCUGUGCUACACAUCGUAUGUACCGAAUCGGAGGGAGGGGAGGGGAAAGUAUUAUGUUACGCCGUUCGGAUCUGCACUUCCA,-0.23
GCAGGAAGUAAAAACAAAUGGAAAUGCUUCGGAUAGUGGCAGGGGUGGGGGUUGCUAAGGAAAGGGUGGGAUGGGAAAAGGUAAAGAGUU,-0.0891

# Sample 2
# Target: Prothrombin, mature alpha-thrombin (F2, Homo sapiens, UniProt P00734)
# Technique: aptamer microarray, sandwich
# Molecule type: DNA with 2'F-ANA
# Sample: in vitro
# Concentration: 200 nM
# Notes: whole 15-mer aptamer, many near background
# With: Cy3 exosite-II aptamer, 400 nM
# Reading: higher = stronger binding
# Strand: GGTTGGTGTGGTTGG
Modification,mean fluorescence intensity
2'F-ANA at 2 5 7 8 10 11 15,46.9 a.u.
2'F-ANA at 2 4 9 12 13 15,357 a.u.
2'F-ANA at 1 3 4 6 8 10 11 14 15,115 a.u.
2'F-ANA at 3 6 9 10 12 13 15,507 a.u.
2'F-ANA at 6 8 10 11 13 14,95.2 a.u.
2'F-ANA at 1 6 7 8 9 10 14 15,50.5 a.u.
2'F-ANA at 1 2 3 4 5 7 9 10 12 14,46.9 a.u.
2'F-ANA at 1 3 5 6 7 8 9 10 14,48.8 a.u.
2'F-ANA at 1 3 6 11,221 a.u.
2'F-ANA at 3 4 9 10 11 12 13 14,200 a.u.
2'F-ANA at 1 2 7 8 11 14 15,58.3 a.u.
2'F-ANA at 1 4 7 10 12 13 15,52.7 a.u.
2'F-ANA at 2 6 8 9 10 12 13,149 a.u.
2'F-ANA at 2 6 9 10 11 13 14,107 a.u.
2'F-ANA at 1 4 5 8 9 12 13,75.3 a.u.
2'F-ANA at 5 6 7 8 9 15,78.5 a.u.
2'F-ANA at 1 2 7 9 10 11 12,61.1 a.u.
2'F-ANA at 1 2 11 12 13 14,60 a.u.

# Sample 3
# Target: Sal-like protein 4, full length isoform A (SALL4, Homo sapiens, UniProt Q9UJQ4, residues 1-1053)
# Chain of UniProt Q9UJQ4 (whole entry, looked up): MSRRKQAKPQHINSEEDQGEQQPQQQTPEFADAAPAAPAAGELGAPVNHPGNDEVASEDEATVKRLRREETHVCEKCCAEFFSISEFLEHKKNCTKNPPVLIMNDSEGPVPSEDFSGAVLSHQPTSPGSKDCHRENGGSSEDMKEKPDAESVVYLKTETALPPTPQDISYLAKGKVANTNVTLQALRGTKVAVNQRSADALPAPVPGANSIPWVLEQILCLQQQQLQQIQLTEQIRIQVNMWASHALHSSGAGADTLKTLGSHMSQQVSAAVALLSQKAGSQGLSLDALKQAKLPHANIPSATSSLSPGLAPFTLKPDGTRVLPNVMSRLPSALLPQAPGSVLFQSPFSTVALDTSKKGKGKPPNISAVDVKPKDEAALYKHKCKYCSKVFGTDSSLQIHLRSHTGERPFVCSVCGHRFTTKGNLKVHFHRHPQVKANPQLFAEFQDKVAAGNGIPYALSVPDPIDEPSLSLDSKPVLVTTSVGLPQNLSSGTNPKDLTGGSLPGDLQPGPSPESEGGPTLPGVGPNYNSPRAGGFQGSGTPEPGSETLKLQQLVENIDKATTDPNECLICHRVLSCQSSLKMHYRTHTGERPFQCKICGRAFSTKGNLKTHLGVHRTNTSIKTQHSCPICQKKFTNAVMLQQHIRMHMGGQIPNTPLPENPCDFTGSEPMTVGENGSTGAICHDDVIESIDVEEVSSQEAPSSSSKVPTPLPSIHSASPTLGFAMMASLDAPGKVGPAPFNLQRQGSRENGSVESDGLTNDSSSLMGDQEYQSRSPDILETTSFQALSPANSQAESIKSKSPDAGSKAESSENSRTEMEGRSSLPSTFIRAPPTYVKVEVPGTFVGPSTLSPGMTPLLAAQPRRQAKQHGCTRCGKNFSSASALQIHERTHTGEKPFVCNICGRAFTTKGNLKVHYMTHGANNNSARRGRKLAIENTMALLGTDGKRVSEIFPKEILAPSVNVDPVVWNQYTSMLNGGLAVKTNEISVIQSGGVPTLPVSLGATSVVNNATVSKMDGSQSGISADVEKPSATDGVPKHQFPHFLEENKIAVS
# Technique: universal PBM
# Molecule type: double-stranded DNA, one strand shown
# Sample: in vitro
# Concentration: 600 nM
# Notes: 8-mer, flanks averaged, mean of replicates
# Reading: higher = stronger binding
Strand,E-score
GGTCCCAC,-0.323
ATTCGTGG,0.014
GGATGGCA,0.0842
AGTTTCCA,0.189
GCTAGGAC,-0.091
AAAATCAT,0.379
GGCCTTAA,-0.0492
AATTACTG,0.199
AGAAGCCG,-0.236
CCTACAAA,0.0231
AGCCACGG,-0.339
ATTTATAC,0.314
ACGTTACG,0.0354
ACCACCCC,-0.252
CGAAGATC,0.0216
GCATTTAC,0.105
ATACGCAT,0.162
AGTGACTG,-0.171

# Sample 4
# Target: RNA binding protein fox-1 homolog 2, RRM domain, GST-SBP tag (RBFOX2, Homo sapiens, UniProt O43251-10, residues 100-194)
# Technique: RNA Bind-n-Seq
# Molecule type: RNA
# Sample: in vitro
# Concentration: 365 nM
# Notes: natural RNA segment, single round, ends assumed
# Baseline: no-protein control
# Reading: higher = stronger binding
# Constant ends, left off below: GGGAGUUCUACAGUCCGACGAUC … UGGAAUUCUCGGGUGCCAA
# Residues (chain): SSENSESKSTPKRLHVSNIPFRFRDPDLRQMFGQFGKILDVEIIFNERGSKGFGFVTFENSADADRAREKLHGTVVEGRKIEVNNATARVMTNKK
Strand,RBNS enrichment (R)
GGUGAGUUCCUUGGACGACCCCAGACAGGCUUCUGGAUCUGGCUCCAGGGUCAUCACAUGUCAAAGCAAUAUUGGGGAUUGCUAGGCUUCUUUCAACUUACUUUUCACAG,0.67
UUGACUGCACUGUGGGUGAGUGUUCUGAGCUCCCAAUAUUGUACAGCAUCGUAAAUUAUCCAAGGAAGAUAUGGCAGGCCAAGCUGGUGCUGACCGCUGGUUUGAUUUUC,5.64
CAAAGUUACCAUAUUUUGGUGUUUUUGUGUUUUCUCUUUAUAAGGCAAAAAGAUCUGUAUUUACACUCCUUCACCUAGGGAUGUGUUUGUUGCCCUCCUACCCAAUUGUC,0.496
UCUGGGGACACUGACUCAGCGAGUGUGUUCCAGACUGACUUCCAGGACACUGUGUGACGUCAGCAUCUCAGACAGGCAGGAGAAAAGCACCAGAUACCUGGCUUUCCAUG,0.677
CCUGUCUUCCUCUGCACCGUGCUCAGGGAAAUGGCCUUCAUUCCAGAGGCCAGCUGUCUGCCUGACUUUUCCUCCGUUCUUGGCCUUCUCCCCUUCCCAUCUUCUGAGCU,1.05
CAGACAAACCCCGGCCUGCGCGCCUGCAGAGCGGCGGCUGGAGACUGGAGCCACCGCCUCGCGGGUGCAGCAGCACAGCAGGCACGGUUCGGGGAGGGAUUCGGCAUGGC,0.817
AUUAUUUUAAUUAAUUUUUUUCAUAAUUGAGACAGAACUGUUUGUUAUGUACCAUAAUGCUAAAUAAAACUGUGGCACUUUUCACCAUAAUUUAAUUUAGUGGAAAAAGA,0.367
AAGCUGAGUGAUUUUUUUUUUUUCAUCAAUCCACACAUUUUUGUCCAUUGCUGUAAGAGAAGAAAACAUCUGAAAUGAGUAUGUUGAGCUUGAGGAAAAUUGUAUCAUAU,1.44
AUUGGGCACACACAACUCCUGGUCAUGUCCCAGUUCAGCACCGAUCGCUAAGGCCGAUCCUGUAGAAUGCGGCUUUCAAGAGGUCCUAACUGAUCCUUUCUUCCACUUUG,0.27
CCAGCACUGCUUGAGGAAAACAAGCAUUCACAACUUGUUUUUGGUUUUUAAAACCCAGUCCACAAAAUAACCAAUCCUGGACAUGAAGAUUCUUUCCCAAUUCACAUCUA,0.631
AUAAUGCUAAUGAUUGUACUUAGUACAUUUUUAUACUUUUAUGAUAUUUUACUGAUUGGAAAUGUCAUCCUUUAUUAAAAAUAAACAUGGUUUUCCAUAGUUGCCUGCCA,0.685
UUAGUCCUUGUCAGCCUCACAGAGGUCUGCGCCCGACACUUCUGCCCUUUGAGACAAAAGAAACAGGCCCAGCACGAGUGGAAGUGGGUGUCUGUGUUUCUGUUUGCACU,2.17

# Sample 5
# Target: Histone acetyltransferase KAT6A, winged helix 2, GST fusion (KAT6A, Homo sapiens, UniProt Q92794, residues 85-181)
# Technique: protein binding microarray
# Molecule type: double-stranded DNA, one strand shown
# Sample: in vitro
# Concentration: not given
# Notes: 8-mer, flanks averaged, mean of 2 arrays, mostly near background
# Baseline: not given
# Reading: higher = stronger binding
# Target sequence (chain): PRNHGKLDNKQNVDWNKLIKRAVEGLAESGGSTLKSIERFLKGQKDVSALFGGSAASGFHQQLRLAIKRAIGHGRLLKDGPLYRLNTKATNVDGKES
Strand,E-score
ATACCGCC,0.145
CGATGGCC,0.00928
AGACATGG,-0.102
CCCCGGCA,0.00613
CGCCATAC,0.00122
AGCAGCCG,0.0951
CGTCAAAG,0.0219
AAAGTCTA,-0.225
AAGCCTCG,0.0569
AGACGTTC,-0.181
CGCTAAGC,0.143
CCGAAACG,0.173
ACATAGGT,0.0091
GATCCATA,0.0152
CGCAAAGC,0.212
CCACGCAA,0.201
AGTGCCGG,0.0932
CAAGCAGG,-0.00707
CGTCGTCA,-0.0354
ATAAACAA,0.137
ACACTTTA,-0.209
TGTCTCAA,-0.167
CACACTCC,-0.131
ACCTCTAG,0.0238
ATGGAATG,0.000865
